Results from different studies.
Compare with care: the assays were run in different laboratories. Several values in a cell are separate wells, animals, samples, runs or records. ± gives the spread as reported.
EPHX2: Bifunctional epoxide hydrolase 2 (EPHX2, Homo sapiens, UniProt P34913)
UniProt P34913, sequence (whole entry, looked up): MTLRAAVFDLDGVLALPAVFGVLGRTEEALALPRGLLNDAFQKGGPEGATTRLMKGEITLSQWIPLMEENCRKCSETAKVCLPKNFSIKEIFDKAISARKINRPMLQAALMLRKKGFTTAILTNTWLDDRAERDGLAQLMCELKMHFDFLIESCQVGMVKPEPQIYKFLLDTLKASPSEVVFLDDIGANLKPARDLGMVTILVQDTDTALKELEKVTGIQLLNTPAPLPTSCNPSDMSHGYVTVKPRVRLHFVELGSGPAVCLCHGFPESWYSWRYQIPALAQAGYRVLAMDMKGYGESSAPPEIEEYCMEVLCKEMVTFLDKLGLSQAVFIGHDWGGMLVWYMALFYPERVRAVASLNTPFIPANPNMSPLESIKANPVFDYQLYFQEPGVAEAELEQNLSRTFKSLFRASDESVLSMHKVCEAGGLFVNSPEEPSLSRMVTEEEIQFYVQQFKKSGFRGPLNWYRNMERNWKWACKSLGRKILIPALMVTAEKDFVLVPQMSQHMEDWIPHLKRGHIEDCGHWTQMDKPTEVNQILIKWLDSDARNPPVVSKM
Ephx2: Bifunctional epoxide hydrolase 2 (Ephx2, Mus musculus, UniProt P34914)
UniProt P34914, sequence (whole entry, looked up): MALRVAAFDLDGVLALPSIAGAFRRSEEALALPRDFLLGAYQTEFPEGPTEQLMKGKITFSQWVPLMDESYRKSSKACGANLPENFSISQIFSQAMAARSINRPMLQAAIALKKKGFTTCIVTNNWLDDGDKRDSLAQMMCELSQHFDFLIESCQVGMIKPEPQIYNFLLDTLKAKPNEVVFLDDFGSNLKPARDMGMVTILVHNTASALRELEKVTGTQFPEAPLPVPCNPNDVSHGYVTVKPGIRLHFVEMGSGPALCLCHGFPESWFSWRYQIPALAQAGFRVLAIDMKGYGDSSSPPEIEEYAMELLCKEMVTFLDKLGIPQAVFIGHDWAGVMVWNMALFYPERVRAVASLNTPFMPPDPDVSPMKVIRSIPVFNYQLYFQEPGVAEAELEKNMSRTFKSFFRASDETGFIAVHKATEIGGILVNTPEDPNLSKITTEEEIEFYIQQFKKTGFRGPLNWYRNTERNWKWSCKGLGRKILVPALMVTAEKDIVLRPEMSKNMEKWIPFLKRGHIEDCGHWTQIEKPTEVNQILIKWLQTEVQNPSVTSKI
AAK1: AP2-associated protein kinase 1 (AAK1, Homo sapiens, UniProt Q2M2I8)
UniProt Q2M2I8, sequence (whole entry, looked up): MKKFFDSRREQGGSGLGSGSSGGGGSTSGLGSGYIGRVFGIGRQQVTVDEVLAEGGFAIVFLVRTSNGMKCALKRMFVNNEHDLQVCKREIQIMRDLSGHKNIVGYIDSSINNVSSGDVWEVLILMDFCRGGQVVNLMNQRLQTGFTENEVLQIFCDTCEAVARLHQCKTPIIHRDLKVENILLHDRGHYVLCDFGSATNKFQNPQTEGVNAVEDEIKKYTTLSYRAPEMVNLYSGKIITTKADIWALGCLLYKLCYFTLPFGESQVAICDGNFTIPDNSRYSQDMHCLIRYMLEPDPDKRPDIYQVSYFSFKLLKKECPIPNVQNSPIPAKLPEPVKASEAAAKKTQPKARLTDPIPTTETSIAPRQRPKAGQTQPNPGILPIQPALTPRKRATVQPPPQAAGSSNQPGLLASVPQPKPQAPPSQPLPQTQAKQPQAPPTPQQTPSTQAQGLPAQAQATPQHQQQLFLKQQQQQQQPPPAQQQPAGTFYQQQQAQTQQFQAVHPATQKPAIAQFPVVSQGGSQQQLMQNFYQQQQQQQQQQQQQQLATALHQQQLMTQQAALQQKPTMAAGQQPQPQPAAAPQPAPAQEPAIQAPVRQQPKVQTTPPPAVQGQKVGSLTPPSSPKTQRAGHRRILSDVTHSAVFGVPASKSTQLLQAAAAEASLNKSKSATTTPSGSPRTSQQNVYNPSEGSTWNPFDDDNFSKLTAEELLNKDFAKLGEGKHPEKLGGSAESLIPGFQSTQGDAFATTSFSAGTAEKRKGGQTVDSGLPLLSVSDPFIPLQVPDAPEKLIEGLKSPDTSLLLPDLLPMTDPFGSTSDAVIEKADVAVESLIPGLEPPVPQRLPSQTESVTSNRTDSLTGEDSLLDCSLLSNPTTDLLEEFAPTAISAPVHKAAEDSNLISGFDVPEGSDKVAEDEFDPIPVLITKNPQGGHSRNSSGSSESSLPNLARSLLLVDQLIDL
ache: Acetylcholinesterase (ache, Electrophorus electricus, UniProt O42275)
UniProt O42275, sequence (whole entry, looked up): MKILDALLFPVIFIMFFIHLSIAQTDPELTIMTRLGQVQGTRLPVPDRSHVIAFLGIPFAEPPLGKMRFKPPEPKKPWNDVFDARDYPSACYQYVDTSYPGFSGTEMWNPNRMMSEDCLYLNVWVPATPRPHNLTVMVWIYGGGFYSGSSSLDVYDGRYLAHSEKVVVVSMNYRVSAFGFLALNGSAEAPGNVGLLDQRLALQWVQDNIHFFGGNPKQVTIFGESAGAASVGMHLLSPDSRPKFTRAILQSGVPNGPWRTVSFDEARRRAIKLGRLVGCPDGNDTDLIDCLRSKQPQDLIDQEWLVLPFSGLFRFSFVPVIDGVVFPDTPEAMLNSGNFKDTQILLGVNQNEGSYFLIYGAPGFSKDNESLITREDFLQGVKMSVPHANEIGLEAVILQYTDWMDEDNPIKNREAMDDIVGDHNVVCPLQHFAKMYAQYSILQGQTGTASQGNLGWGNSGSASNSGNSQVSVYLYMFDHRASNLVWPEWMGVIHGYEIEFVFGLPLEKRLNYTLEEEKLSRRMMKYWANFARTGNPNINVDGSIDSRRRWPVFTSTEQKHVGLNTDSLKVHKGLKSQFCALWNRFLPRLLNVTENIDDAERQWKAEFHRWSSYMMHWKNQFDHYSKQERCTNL
UniProt Q9H9B1, sequence (whole entry, looked up): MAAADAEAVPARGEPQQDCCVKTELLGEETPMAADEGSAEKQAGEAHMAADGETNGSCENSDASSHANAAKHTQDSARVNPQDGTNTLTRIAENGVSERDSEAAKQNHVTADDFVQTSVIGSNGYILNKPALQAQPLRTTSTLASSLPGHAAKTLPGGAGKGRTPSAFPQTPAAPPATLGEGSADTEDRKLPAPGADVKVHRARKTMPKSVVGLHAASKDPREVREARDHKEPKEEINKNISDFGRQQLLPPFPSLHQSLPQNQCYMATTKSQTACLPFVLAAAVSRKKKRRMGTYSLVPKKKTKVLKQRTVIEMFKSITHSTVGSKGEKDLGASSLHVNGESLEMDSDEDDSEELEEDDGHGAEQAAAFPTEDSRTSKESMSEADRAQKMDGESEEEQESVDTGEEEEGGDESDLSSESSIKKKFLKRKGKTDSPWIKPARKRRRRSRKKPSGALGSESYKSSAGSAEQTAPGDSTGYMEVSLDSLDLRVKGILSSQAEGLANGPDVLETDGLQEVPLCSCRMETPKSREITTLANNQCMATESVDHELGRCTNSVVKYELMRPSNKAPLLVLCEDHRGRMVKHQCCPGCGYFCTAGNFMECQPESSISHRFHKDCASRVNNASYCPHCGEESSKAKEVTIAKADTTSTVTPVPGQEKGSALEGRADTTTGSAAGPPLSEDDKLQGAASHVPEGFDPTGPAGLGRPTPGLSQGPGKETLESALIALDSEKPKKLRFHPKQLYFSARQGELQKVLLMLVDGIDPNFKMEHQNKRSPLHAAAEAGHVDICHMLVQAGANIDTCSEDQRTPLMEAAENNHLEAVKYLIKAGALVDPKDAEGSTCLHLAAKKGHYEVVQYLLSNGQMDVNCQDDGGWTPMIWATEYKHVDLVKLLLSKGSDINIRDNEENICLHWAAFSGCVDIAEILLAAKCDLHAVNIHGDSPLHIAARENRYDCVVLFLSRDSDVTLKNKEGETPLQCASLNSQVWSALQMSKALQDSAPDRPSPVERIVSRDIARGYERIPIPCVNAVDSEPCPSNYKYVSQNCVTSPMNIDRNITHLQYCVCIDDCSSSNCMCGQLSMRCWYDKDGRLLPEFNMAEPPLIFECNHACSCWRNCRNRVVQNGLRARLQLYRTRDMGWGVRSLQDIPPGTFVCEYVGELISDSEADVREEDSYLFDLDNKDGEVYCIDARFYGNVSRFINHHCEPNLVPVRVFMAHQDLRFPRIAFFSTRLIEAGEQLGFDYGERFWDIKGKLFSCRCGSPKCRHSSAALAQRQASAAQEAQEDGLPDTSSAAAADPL
UniProt Q02768, sequence (whole entry, looked up): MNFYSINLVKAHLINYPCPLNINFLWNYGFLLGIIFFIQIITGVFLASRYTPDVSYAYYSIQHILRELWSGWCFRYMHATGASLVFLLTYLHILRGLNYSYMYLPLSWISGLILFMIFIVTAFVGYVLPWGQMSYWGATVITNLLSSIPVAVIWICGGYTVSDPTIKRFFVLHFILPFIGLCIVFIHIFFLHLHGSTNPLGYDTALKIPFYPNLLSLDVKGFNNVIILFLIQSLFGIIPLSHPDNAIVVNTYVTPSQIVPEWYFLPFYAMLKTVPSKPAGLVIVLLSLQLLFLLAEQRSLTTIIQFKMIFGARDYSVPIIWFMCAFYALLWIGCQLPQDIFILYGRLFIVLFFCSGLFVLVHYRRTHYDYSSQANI
UniProt P0DMS8, sequence (whole entry, looked up): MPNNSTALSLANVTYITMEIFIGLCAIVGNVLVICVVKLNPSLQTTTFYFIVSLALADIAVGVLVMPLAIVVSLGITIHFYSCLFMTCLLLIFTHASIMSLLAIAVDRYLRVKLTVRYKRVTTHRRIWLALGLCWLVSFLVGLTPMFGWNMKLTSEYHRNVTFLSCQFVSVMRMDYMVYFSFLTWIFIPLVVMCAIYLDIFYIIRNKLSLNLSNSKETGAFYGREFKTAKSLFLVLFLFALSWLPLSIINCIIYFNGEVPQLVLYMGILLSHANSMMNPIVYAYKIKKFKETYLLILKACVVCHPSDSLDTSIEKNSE

SMILES | tested on | assay | test system | setting | quantity | value
Cc1ccc(S(=O)(=O)Nc2c(N3CCC(NC(=O)Nc4ccc(Cl)c(F)c4)CC3)c(=O)c2=O)cc1 | EPHX2 | – | – | – | IC50 | 50 ± 4.5 nM
CC[C@H](C)[C@H](N)C(=O)N[C@@H](CCCNC(=N)N)C(=O)N[C@@H](CC(C)C)C(=O)N[C@@H](CCCNC(=N)N)C(=O)N1CCC[C@H]1C(=O)NCC(=O)NCC(=O)N[C@@H](CCCCN)C(=O)N[C@@H](CCCCN)C(=O)O | HLA class I histocompatibility antigen, B alpha chain, allele B*27:05 (Homo sapiens, UniProt P01889) | – | – | – | IC50 | 45 nM
Cc1ccc(S(=O)(=O)Nc2c(N3CCC(NC(=O)Nc4ccc(C)c(Cl)c4)CC3)c(=O)c2=O)cc1 | Ephx2 | – | – | – | IC50 | 0.7 ± 0.09 nM
Cc1c(C2(c3ccc(C(F)(F)F)c(C#N)c3)CC2)c[nH]c1C(=O)NC(C)c1nc[nH]n1 (stereo not shown) | Adenosine receptor A3 (ADORA3, Homo sapiens, UniProt P0DMS8) | – | – | – | IC50 | 34000 nM
Fc1ccc(-c2ccnc3[nH]cc(C#Cc4cccnc4)c23)cc1 | AAK1 | – | – | – | IC50 | 4.62 nM
COc1cc(OC)cc(-c2ccc(-c3cc(OC)cc(OC)c3)s2)c1 | Cytochrome P450 1A1 (CYP1A1, Homo sapiens, UniProt P04798) | enzyme activity, inhibitor | – | 20 min | IC50 | ~5000 nM
O=C(O)CCCC[C@@H]1SC[C@@H]2NC(=O)N[C@@H]21 | Histone-lysine N-methyltransferase EHMT1 (EHMT1, Homo sapiens, UniProt Q9H9B1) | inhibitor | – | apparent, bead displacement artifact | IC50 | 1300 to 1700 nM and 1330 nM
Cc1c2ccncc2c(C)c2c1[nH]c1ccccc12 | Myosin light chain kinase family member 4 (MYLK4, Homo sapiens, UniProt Q86YV6) | – | – | – | IC50 | 7.1 nM
O=C(Nc1ccc(-c2cnc3ccccc3c2)cc1)C1CCN(Cc2ccccc2[N+](=O)[O-])CC1 | ache | – | – | – | IC50 | 7740 nM
COc1ccc(-c2ccc3[nH]cc(C#Cc4cccnc4)c3c2)cc1OC | AAK1 | – | – | – | IC50 | > 10000 nM
O=[N+]([O-])c1ccc2c(c1)[I+]c1ccccc1-2 | DUOX2, with DUOXA2 (Homo sapiens, UniProt Q9NRD8) | hydrogen peroxide production, Amplex Red | HEK293 expressing target | 30 min | IC50 | 412 ± 236 nM
CC(C)(C)OC(=O)NCCOc1ccc(Cl)cc1C(=O)NCC(=O)Nc1ccc([N+](=O)[O-])cc1Cl | Cathepsin B (CTSB, Homo sapiens, UniProt P07858) | – | – | – | IC50 | > 200000 nM
COc1ccc(-c2ccnc3[nH]nc(C#Cc4cccnc4)c23)cc1OC | AAK1 | – | – | – | IC50 | 1.67 nM
Cc1cc(OCc2nnc(SC3CCCC3)n2-c2cccnc2)ccc1-c1ccc(S(C)(=O)=O)cc1 | SR | – | – | – | GI50 | 34 nM
O=C(Nc1ccc(OC(F)(F)F)c(F)c1)NC1CCN(c2c(NS(=O)(=O)Cc3ccccc3)c(=O)c2=O)CC1 | Ephx2 | – | – | – | IC50 | 21.1 ± 1.8 nM
O=C(Nc1ccc(-c2cnc3ccccc3c2)cc1)C1CCN(Cc2ccccc2)CC1 | EPHX2 | – | – | – | IC50 | 76.6 nM

SMILES | tested on | assay | test system | setting | quantity | value
Cc1ccccc1S(=O)(=O)Nc1c(N2CCC(NC(=O)Nc3ccc(C(F)(F)F)cc3)CC2)c(=O)c1=O | Ephx2 | – | – | – | IC50 | 542 ± 64.8 nM
C(#Cc1c[nH]c2nccc(-c3cccnc3)c12)c1cccnc1 | AAK1 | – | – | – | IC50 | 2.33 nM
Cc1cccc(CN2CCC(C(=O)Nc3ccc(-c4cnc5ccccc5c4)cc3)CC2)c1 | EPHX2 | – | – | – | IC50 | 184 nM
O=C1C(O)=C([C@H]2CC[C@H](c3ccc(Cl)cc3)CC2)C(=O)c2ccccc21 | MT-CYB, bc1 complex (Plasmodium falciparum, UniProt Q02768) | – | – | – | IC50 | 0.2 nM
O=C(Nc1cc(F)cc(F)c1)NC1CCN(c2c(NS(=O)(=O)Cc3ccccc3)c(=O)c2=O)CC1 | EPHX2 | – | – | – | IC50 | 36 ± 2.9 nM
COc1ccc(-c2ncnc3[nH]cc(C#Cc4cccnc4)c23)cc1OC | AAK1 | – | – | – | IC50 | 0.902 nM
O=C(Nc1ccc(-c2ccc3ccccc3n2)cc1)C1CCN(Cc2ccc(F)cc2F)CC1 | Fatty-acid amide hydrolase 1 (FAAH, Homo sapiens, UniProt O00519) | – | – | – | IC50 | 141 nM
Cc1ccc(S(=O)(=O)Nc2c(N3CCC(NC(=O)Nc4ccc(C(F)(F)F)c(F)c4)CC3)c(=O)c2=O)cc1 | Ephx2 | – | – | – | IC50 | 2250 ± 254 nM
O=C(Nc1ccc(-c2ccc3ccccc3n2)cc1)C1CCN(Cc2ccccc2F)CC1 | ache | – | – | – | IC50 | 2300 nM
CCCCCn1c2ccccc2c2cc(C(=O)NCC3CCN(CC(=O)NC(C)(C)C)CC3)ccc21 | Voltage-dependent T-type calcium channel subunit alpha-1H (CACNA1H, Homo sapiens, UniProt O95180) | T-type calcium current, blocker, whole-cell voltage clamp | tsA201 cells transiently expressing hCav3.2 | tonic block | IC50 | 1480 ± 200 nM
Cc1ccccc1S(=O)(=O)Nc1c(N2CCC(NC(=O)Nc3ccc(F)c(Cl)c3)CC2)c(=O)c1=O | EPHX2 | – | – | – | IC50 | 27.4 ± 1.9 nM
O=C(Nc1ccc(-c2ccc3ccccc3n2)cc1)C1CCN(Cc2cccc(F)c2)CC1 | ache | – | – | – | IC50 | 2500 nM and 2510 nM
C(#Cc1c[nH]c2nccc(-c3cccs3)c12)c1cccnc1 | AAK1 | – | – | – | IC50 | 1.98 nM
O=C(Nc1ccc(-c2ccc3ccccc3n2)cc1)C1CCN(Cc2ccc(F)cc2)CC1 | ache | – | – | – | IC50 | 1490 nM and 1500 nM
Cc1ccccc1S(=O)(=O)Nc1c(N2CCC(NC(=O)Nc3ccc(Cl)c(F)c3)CC2)c(=O)c1=O | Ephx2 | – | – | – | IC50 | 757 ± 65.9 nM

Some of these lines once more:
SMILES | tested on | assay | test system | setting | quantity | value
O=C(Nc1ccc(-c2ccc3ccccc3n2)cc1)C1CCN(Cc2ccc(F)cc2F)CC1 | Fatty-acid amide hydrolase 1 (FAAH, Homo sapiens, UniProt O00519) | – | – | – | IC50 | 141 nM
C(#Cc1c[nH]c2nccc(-c3cccnc3)c12)c1cccnc1 | AAK1 | – | – | – | IC50 | 2.33 nM
O=C(Nc1ccc(OC(F)(F)F)c(F)c1)NC1CCN(c2c(NS(=O)(=O)Cc3ccccc3)c(=O)c2=O)CC1 | Ephx2 | – | – | – | IC50 | 21.1 ± 1.8 nM
Cc1ccc(S(=O)(=O)Nc2c(N3CCC(NC(=O)Nc4ccc(C)c(Cl)c4)CC3)c(=O)c2=O)cc1 | Ephx2 | – | – | – | IC50 | 0.7 ± 0.09 nM
CC(C)(C)OC(=O)NCCOc1ccc(Cl)cc1C(=O)NCC(=O)Nc1ccc([N+](=O)[O-])cc1Cl | Cathepsin B (CTSB, Homo sapiens, UniProt P07858) | – | – | – | IC50 | > 200000 nM
